# Experimental data of several laboratories.
# A part holds a random share of what one study measured. Positions count from the first letter of the parent shown.

# Series 1 — technique: RNA Bind-n-Seq; molecule type: RNA; matrix: in vitro; tested at: not given; baseline: input RNA pool; direction: higher = stronger binding
# Target: RING finger protein unkempt homolog, zinc fingers 1-6, GST-SBP tag (UNK, Homo sapiens, UniProt Q9C0B0, residues 30-357)
# Setting: RNA with constant flanks, human and mouse sites, ends assumed
# All sequences stand within: GGGAGUUCUACAGUCCGACGAUC … CAACAGAGGAUUGAGCAUCA
# Construct (chain): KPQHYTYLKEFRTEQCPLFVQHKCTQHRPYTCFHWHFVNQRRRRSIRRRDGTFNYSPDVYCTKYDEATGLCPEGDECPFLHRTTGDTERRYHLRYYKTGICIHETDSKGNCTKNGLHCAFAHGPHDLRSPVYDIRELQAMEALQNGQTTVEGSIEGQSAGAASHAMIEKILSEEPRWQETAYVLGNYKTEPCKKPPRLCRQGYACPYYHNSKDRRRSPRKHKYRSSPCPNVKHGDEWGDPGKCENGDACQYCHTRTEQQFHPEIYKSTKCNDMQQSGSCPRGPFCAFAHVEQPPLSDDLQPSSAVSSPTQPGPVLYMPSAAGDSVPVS
Sequence,bound/input enrichment [ratio]
UACAUGGUAAAGCAUAAAUCGCACUUGAGAUUCUGAAUUAUUUGGCUCCUCCAUUUCUGGAAAUUGAGACUCAAGCUUUAUGAAUUUAUCAAGAACUUAAAAAUGAAGAAGGUCACAGAU,0.149
GUGGCUCACCAUGCUUCUGAAAACAACAGGAUUUUCACUUUGAAUCUAUCUGCACCGUUUAUUAGCCAGUUCUACAAGGAAUCAUUGAUGAAAGUUAUGCCUUAUGUUGAUAUACUUUUU,0.225
CCUUUUUGUUACUUGACACUUCCAUUGCCCAUGAAAAAAGAACGCACCUUGGAAGUUUACUUAGUUAGAAUGGAUCCACUUACCAAACCUAUGCAGUACAAAGUGGUUGUCCCCAAAAUU,0.44
AAAUGCUCAGUUCUAACUAAUGAAAUGGAUUUCCCAGUAGGGGUUUCUGCAUAUCACCUGUAUAGUAGUUAUAUGCAUAUGUUUCUGUGCAUGUUCUCUACACAAUUGUAAGGUGUCACU,0.297
UCUGCGGAAGUCCCCGAGGCAGCCUCCGCGGAGGAGCAGAAGGAAAUGGAAGAUAAAGUGACUAGUCCAGAGAAAGCAGAAGAAGCAAAAUUAAAAGCAAGAUAUCCUCAUCUGGGACAA,0.444
GAAAAGGCACAGCUUCACUUAGACCAAGUACUCACUAGUCCUUUCAACACAACAUUUCCACUCGACUACAUGAAAGAUGAGUUCCUUCCAGCUCUGUCUUUACAAAGCGGUGCUUUAGAU,0.898
UCCCACUCCUCGGCAGACAUCAACUCCAGUCUUCCUCCGAUGUCCACGUUCCAUCGUAGUGGCACAAACCAUUACAGCACCUCUUCCUGCACACCCCCUGCCAACGGAACAGACAGUAUA,0.462
AAGCUCCUUCAUGACUUGGUACAACCUCCAACCAUCACUCAACAGUCACCAAAAGACUACAUCAUUGACCCUCGGGAGAAUAUUGUAAUCCAGUGUGAGGCCAAAGGGAAACCUCCCCCA,0.202
UGAAAAUGCUUUCGAGAGACUACUGGACAUUAUUUCAGAGGAGGGGAACAGUGAUGGAGGUAUAGUAGUUGAAGAUUGUUUGAUUUUGCUCCAAAACUUAUUAAAAAACAACAACUCCAA,0.658
AUUCACAGAUUUAUUGUGAACACUCUGAAAGACGGAAGGAGAGUAGUUAUCUUGAUGGAAUUAGAAGUUUUGAAGUCAGCUGAAGCAGUUGGAGUGAAGAUUGGCAAUCCAGUGCCCUAU,3.25
GCUGUCAUGUACGUGUGCAAAGUGGCGGCCGAGUGGAGGAGCACCUUCCACAAGGACGUGGUUGUCGAUUUGGUGUGUUACCGGCGCAACGGCCACAACGAGAUGGAUGAGCCCAUGUUC,0.0443

# Series 2 — technique: DHFR PCA, deep sequencing; matrix: yeast; together with: (+)-ABA 0.39 µM; baseline: wild-type fitted maximum; direction: higher = stronger binding
# Target: ABI1, truncated, D143A, DHFR fusion (Arabidopsis thaliana)
# Setting: methotrexate growth selection, single substitutions
# Parent: PYL1, truncated, DHFR fusion (Arabidopsis thaliana); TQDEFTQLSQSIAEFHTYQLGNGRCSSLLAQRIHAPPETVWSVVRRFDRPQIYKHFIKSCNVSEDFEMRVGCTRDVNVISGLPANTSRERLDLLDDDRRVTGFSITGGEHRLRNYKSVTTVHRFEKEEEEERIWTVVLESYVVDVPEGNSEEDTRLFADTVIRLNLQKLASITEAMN; partner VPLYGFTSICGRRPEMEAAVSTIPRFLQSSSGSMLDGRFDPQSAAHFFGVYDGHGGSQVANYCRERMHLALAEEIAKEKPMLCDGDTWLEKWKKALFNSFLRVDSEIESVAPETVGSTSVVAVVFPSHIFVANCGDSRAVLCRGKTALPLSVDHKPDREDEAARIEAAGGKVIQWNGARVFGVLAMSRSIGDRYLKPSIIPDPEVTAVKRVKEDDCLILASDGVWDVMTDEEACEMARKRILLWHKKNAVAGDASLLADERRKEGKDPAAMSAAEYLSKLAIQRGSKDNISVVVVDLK
Substitution,relative binding score
G23E,7.48%
C72V,51.3%
T1L,48.3%
T73R,6.7%
Q2E,51.4%
V136N,-7.08%
Q167N,21.6%
G71K,-1.99%
L166I,6.13%
D75Y,43.5%
R111Y,-5.64%
S26H,25.2%
P50K,-11%
D159C,-4.19%

# Series 3 — technique: competition protein-binding microarray; molecule type: double-stranded DNA, one strand shown; matrix: in vitro; tested at: 2 µM; together with: Cbf1 competitor, 0.05 µM; direction: higher = stronger binding; all sequences stand within: … GTCTTGATTCGCTTGACGCTGCTG
# Target: Phosphate system positive regulatory protein PHO4, full length, GST-tagged (PHO4, Saccharomyces cerevisiae, UniProt P07270, residues 1-312)
# Setting: whole 60-bp probe, lowest competitor level
# Residues (chain): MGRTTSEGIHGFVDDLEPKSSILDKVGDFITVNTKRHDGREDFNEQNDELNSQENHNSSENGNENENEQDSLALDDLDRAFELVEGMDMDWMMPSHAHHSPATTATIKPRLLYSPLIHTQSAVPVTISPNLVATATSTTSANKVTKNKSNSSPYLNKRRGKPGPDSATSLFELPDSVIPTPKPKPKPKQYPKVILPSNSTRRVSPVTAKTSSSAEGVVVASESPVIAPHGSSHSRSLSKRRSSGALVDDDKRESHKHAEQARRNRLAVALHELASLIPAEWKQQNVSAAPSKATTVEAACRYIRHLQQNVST
Sequence,fluorescence intensity [a.u.]
ATCGCTTCCTCCTCCTACATGACAGAGCTGGTACGC,3510
CGGGGTTAAGTTTGCAAGGTGGGTGGCTTGCAGCAG,4410
TATTCATTGCAGTTACACGTGAAGGCTAAACTTTAT,12000
CTTCTGTAAATTTGACGGGTGGGTGGACGCGCCCCG,4550
AGGGAACAGTGCCTACACGTGGCTTGCAATCCACTA,15000
CGGGGTTAAGTTTGAGCTGTGGGTGGCTTGCAGCAG,4390
GTGTCAAACAATGTTTACGTTATTCTTTGGTGGGAA,5200
ATCTAATTGAACATTCTCGTGCGATTAAACGTCATT,7830
CTTTCCCGATCTTGGGCGGTGGGTGTAGCACATTTG,5090
CGGGGTTAAGTTTGTCACTATACTTGCTTGCAGCAG,3940
TGATCGCGCAGGATGGGACAATTAAACGATCTTTGC,3240
TACTTTTTCCGGTGGCCCGTGATGGGTTTGTAACAG,6980
GTAAGGGTGAGGGGCCACGTGGCAATCAGAGCAGCT,17800
CATTTGACTCCATAGAACGTGTGGAGCTGGTGCCAT,10700
AAAGCGGTAATTTGGTGAGTGGGTGCAGATATCTAT,5020
ACTACACTAACCGCCCATGTGTTGGATGGTGTAACT,11300
GTCTTGTCTCATTGTCACTATACTTTCCCCACTTCA,4220
CGTCCTAGTGATTGTCACAACACTTCCATGAGGAAG,5080
TGCTGTTTCCTTGTCCACGTGAGTCAGTTCTGCAGA,12200
ATATACTCTTTGGTGCACATGCAGGGATGGTTCCGG,9950
ATCCTCCTTAGTGGGCATGTGCTCTAGGAATGCAGA,11700
CTAACGAAGGTTTTCCACGTGTTTTACAAGCCAAGT,15700
TGCGCAACAACTTTTCACGTGCCATTATGTCTAGAA,15400

# Further values, each from its own experiment
Substance,target,assay,test system,conditions,how to read,quantity,result
"PhoQ, residues 284 288 289 292 302 303 TLSLKA","PhoP, residues 12 14 15 18 19 AGCRL (Escherichia coli, UniProt P23836)","Sort-seq, item: YFP reporter",E. coli,"PhoQ-PhoP variant library, together with: 10 µM Mg2+","baseline: high Mg2+ state, higher = stronger signaling",fold induction,0.979

# Excerpt of the above (series 2):
Substitution,relative binding score
C72V,51.3%
T1L,48.3%
T73R,6.7%
Q2E,51.4%
V136N,-7.08%
